# Assay results collected from several papers.
# A part holds a random share of what one study measured.

# Sample 1
# Target: PABPC1L2, full length, GST fusion (mouse, UniProt A0ABA7IW68)
# Technique: RNAcompete
# Molecule type: RNA
# Sample: in vitro
# Concentration: 20 nM
# Setting: 7-mer, probes averaged, single round
# Baseline: mean of 7-mers
# Reading: higher = stronger binding
# Target sequence (chain): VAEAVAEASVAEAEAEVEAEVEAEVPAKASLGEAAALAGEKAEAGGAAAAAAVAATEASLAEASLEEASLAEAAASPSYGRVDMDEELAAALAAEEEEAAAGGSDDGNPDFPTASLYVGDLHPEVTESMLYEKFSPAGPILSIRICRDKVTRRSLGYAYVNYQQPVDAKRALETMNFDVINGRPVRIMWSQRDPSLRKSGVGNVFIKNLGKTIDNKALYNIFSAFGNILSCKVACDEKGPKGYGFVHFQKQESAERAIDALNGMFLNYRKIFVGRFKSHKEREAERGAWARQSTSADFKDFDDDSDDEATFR
Strand,7-mer Z-score
UUGACUA,-0.11
CACGCCU,-0.202
UCGUCUG,-0.45
GCCGGUU,-0.273
GUUAAGC,-0.24
CCUAAUU,-0.345
UCGAGAG,-0.135
UAACCCA,-0.229
CAGUGUC,-0.0699
UUCGCAC,-0.425
GGACUAG,0.191
GACCGAA,0.0642
AGGAACU,-0.0464
AGUUAUU,-0.206
CGCCGAU,-0.441
GGCGGGU,0.302
UUCAUAA,-0.0373
ACGGUUU,-0.291
GUCUUAA,-0.209
CUUGCGU,-0.369
GGCGUUU,-0.293
GACAAUU,0.00436
GGUCGGU,-0.0772
GGAAACG,-0.0283
CACGCGA,-0.117

# Sample 2
# Target: Histone acetyltransferase KAT6A, both winged helices, GST fusion (KAT6A, Homo sapiens, UniProt Q92794, residues 1-181)
# Technique: protein binding microarray
# Molecule type: double-stranded DNA, one strand shown
# Sample: in vitro
# Concentration: not given
# Setting: 8-mer, flanks averaged, mean of 2 arrays, mostly near background
# Baseline: not given
# Reading: higher = stronger binding
# Target sequence (chain): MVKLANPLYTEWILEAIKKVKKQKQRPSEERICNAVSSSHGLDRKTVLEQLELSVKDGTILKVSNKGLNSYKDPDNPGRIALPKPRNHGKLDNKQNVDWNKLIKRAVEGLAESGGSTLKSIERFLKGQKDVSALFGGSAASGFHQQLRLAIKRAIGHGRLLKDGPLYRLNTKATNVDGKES
Strand,E-score
AGCCGTCG,0.344
GTTTGAGA,-0.122
GCAGGAGC,0.0565
AAAATGGT,-0.149
TAGCTAAA,-0.039
GAACGTGA,0.12
GTCCACGA,0.0389
ATAGGGAG,-0.227
CCTTTCTC,-0.182
CTTAAACA,0.0702
ACAGAAGT,-0.067
AATATCAC,-0.016
ACTCGTAG,-0.045
AACATGGG,-0.0337
CGTGTTGC,0.13
ATTAGCGC,0.326
TAGACTGA,0.0324
ATCACAAC,0.0233
TATGTGGA,0.0163
GGATGATA,-0.13
AGTCAGAA,-0.0692
GGCCTTAA,-0.0941
CGTCCTAG,0.0257
GCGTATGA,0.204
CTTTGTCC,-0.0979

# Sample 3
# Target: RNA binding protein fox-1 homolog 2, RRM domain, GST-SBP tag (RBFOX2, Homo sapiens, UniProt O43251-10, residues 100-194)
# Technique: RNA Bind-n-Seq
# Molecule type: RNA
# Sample: in vitro
# Concentration: 365 nM
# Setting: natural RNA segment, single round, ends assumed
# Baseline: no-protein control
# Reading: higher = stronger binding
# All sequences stand within: GGGAGUUCUACAGUCCGACGAUC … UGGAAUUCUCGGGUGCCAA
# Residues (chain): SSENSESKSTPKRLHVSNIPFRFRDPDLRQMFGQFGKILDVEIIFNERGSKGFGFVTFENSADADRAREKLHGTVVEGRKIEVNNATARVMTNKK
Strand,RBNS enrichment (R)
GUAGACUGCGGGGUCCUAGCCUCUUCCUCCGACUUUGCUUUUGCAGGUCUUUCACUGCAGAUGGGGCUGCUGUGGGAGUUGGGACUUGUUUGUUUUCCUUUUUGAGUUCA,1.62
GUGCACAUUAGCAAGUGUCCUCAUGCCCGCACCCGGUUUGUGUUGUAGAUCAACUAGCCAACGCCCUCAUUGCUUCAUUGUGUCAAAAAACCGAGAGCUUCACUAAAUGG,0.681
CCUCUUGAUGAAAUGGACAUAUUAUAUAUUUCUGCCACCUGGAUUUUCCUGGAUAAUUUGAUGGAAUAUUUUAAGUUUCAGUAAAUCAGAACAAUAAACAAACUCAGAUA,0.464
CACUGUCUCCAAUAGAAAGUGAAAAGAGAAGUGUGUGUAUAGCUCAGUGGUAGAGUGCUUGCCUGAUAUACAGGAAGCCUCAGUUUAAUCCUAAAUCCCAUUUCAAAAAU,0.248
GUUUGUUUGUUUUUUUUAAAUAGUGCCUUUGUCUUAUUUCAAGGGUGUUCAUAAAUGGUAUUUGUACCAUUUUUUUUUUUAAUAAGUUAAAGACAGUCCAGAGCUUUUCA,0.548
GCUCCCUGCCAGCCUCCAGUGGCCUGGCCAGGCCCUCCCGAGCCUGUCUGCCCUCCCCAGGGGUGGAGGAGUCUCUGGGCCCCAGGAGGAUUCCCUCCCGGAGACUCGCA,0.701
UUGCAAGAGGAAAAUUGUCUGUGUUUUAAUCAGCUAAUGAGGAGGCUAUGGGAUGGACAGAGGGCUUCUUGCAGGAGAAUUGAGAAAAGUGACUAUCUUAAGAAUAUUAU,0.848
CCACAGGUCUUGAUGUGACUUUUGCAUUGAAAAUCCAAACCAAAGGAGCUCUUCAAGAAAAGCAGAGUUCUUCUCGUUCUUGUUCAAUCCUAAAAGCAGAUGUUUUGCCA,0.334
UCCUGUGGAGGCUGAGAUGAAAACUAGGGCUCAUUUUCCUGACAUUUGUUUAUUUUUUGGAAGAGACAAAGAUUUCUUCUGCACUCUGAGCCCAUAGGUCUCAGAGAGUU,0.448
UUUGGUUUGGGUUUGUUUUUGCCUUUGAGGAAAUAAAGAGUGGGUACUUAAGGAAGGUAGUUGCAAAUACCAACUAUGGCCAUGCGAUCAGGCGCAGAAAUGAGGAUUAC,1.27
CCUGAAUAAAGAUGGGCUCUGAAAGGGGACUUCUGAGCAGGCCUAACUGUAGUCCUGGAAGUCUGAAGAAAGGGGGAGGGCAUCAUGGGUCAGCAGCACUGGGUGUCUAG,0.967
GGUUUCUUGCAUCUGAUCUUUCUACCACAACCACACCUGUCGUCCACUCUUCUGACUUGGUUUCUCCAAAUGGGAGGAGACCCAGCUCUGGACAGAAAGGGGACCCGACU,0.62

# Sample 4
# Target: Interferon regulatory factor 5, full length, phosphomimetic (IRF5, Homo sapiens, UniProt Q13568-2, residues 1-514, S451D/S453D/S456D/S462D)
# Technique: protein-binding microarray
# Molecule type: double-stranded DNA, one strand shown
# Sample: in vitro
# Concentration: 940 nM top
# Setting: 60-bp whole probe
# With: salmon DNA 0.4 mg/ml
# Baseline: random background probes
# Reading: higher = stronger binding
# All sequences stand within: GCCTAGCAC … GTCTTGATTCGCTTGACGCTGCTG
Strand,fitted relative affinity [z-score]
GACGGTTTCGACTCTGGGGACGTGCTA,7.67
GAGGGTTTCGGTCTCGGGACGTGCTAG,11
TTATGACTGGGTTTCGGTTAGTGCTAG,6.57
TTAGAACTGAGTCTCGATCAGTGCTAG,2.17
GACGGACTGCGGACTGGGGACGTGCTA,-0.46
TTAGGACTGGGTAACGGTTAGTGCTAG,-0.192
GACGATTGCGGGTTTCGAGACGTGCTA,2.22
CAGTTTCTCTTTCCTTCTTGGTGCTAG,8.72
TGAGGTATCGGTCTCGGTTAGTGCTAG,6.89
TTGCTGAAATAATACTGTTAGTGCTAG,0.0786
GACGGTTGCGGACTGGGGACGTGCTAG,0.0289
CGTTTTTCATTTTTTTTTTCGTGCTAG,2.14
TTCGCTTTCTTTAACTCATTGTGCTAG,1.91
TCAGCTGTGGGTTTGAGACTGTGCTAG,-0.77
TTATGTCTCCTTCTCCTTTAGTGCTAG,1.06
TTAGGACTGGACACTGGATTAGTGCTA,-0.469
TTAGATATCAGTCACGATTAGTGCTAG,0.0897
GTAGTAATGAATATAATACCGTGCTAG,-0.747
GACGAACTGAGTTTGGAGACGTGCTAG,-0.556
TTAGGACCGCTTATCCTTTAGTGCTAG,-0.0663
GACGAACTCAGTATCGAGACGTGCTAG,1.8

# Sample 5
# Target: Fragile X messenger ribonucleoprotein 1, C-terminal low-complexity region (Fmr1, Mus musculus, UniProt P35922)
# Technique: RNA Bind-n-Seq
# Molecule type: RNA
# Sample: in vitro
# Concentration: 200 nM
# Setting: whole 134-nt RNA, ends assumed
# With: 150 mM LiCl
# Baseline: input library
# Reading: higher = stronger binding
# Each molecule: 7-deaza-guanosine replaces G
# All sequences stand within: GGGAGUUCUACAGUCCGACGAUC … UGGAAUUCUCGGGUGUCAAGG
Strand,log2 enrichment
UCCUCAAGUCCUGUGCUACACAUCGUAUGUACCGAAUCGGCCGGCCGGCCGGAAAGUAUUAUGUUACGCCGUUCGGAUCUGCACUUCCAG,1.57
CCUCAAGUCCUGUGCUACACAUCGUAUGUACCGAAUCGGGGAGGGAGGGAGGAAAGUAUUAUGUUACGCCGUUCGGAUCUGCACUUCCAG,-1
AAGUCCUGUGCUACACAUCGUAUGUACCGAAUCGGCCCCGGGCCCCGGGCCCCGGGGAAAGUAUUAUGUUACGCCGUUCGGAUCUGCACU,-3.03
CAAGUCCUGUGCUACACAUCGUAUGUACCGAAUCGGGUGGGAAAAAAAGGGAGGGAAAGUAUUAUGUUACGCCGUUCGGAUCUGCACUUC,-0.148
AGUCCUGUGCUACACAUCGUAUGUACCGAAUCGGAAAAGGGGAAAAGGGAAAAGGGGAAAGUAUUAUGUUACGCCGUUCGGAUCUGCACU,-0.572
CCUCAAGUCCUGUGCUACACAUCGUAUGUACCGAAUCGGUUGGGGUUGGUUGGAAAGUAUUAUGUUACGCCGUUCGGAUCUGCACUUCCA,0.0555
UGGGAGGUGGAUUUUGUUUAUUUUUUUAGCUCAUUUCCAGGGGUGGGAAUUUUUUUUUACUAUGUGUCAUGAAUAAAGUUGUUUUUGAAA,-0.232
CUGUGCUACACAUCGUAUGUACCGAAUCGGGGUUUGGGGAAAAAAAGGGGUUUUUUUGGGGAAAGUAUUAUGUUACGCCGUUCGGAUCUG,-0.85
CACAGACAACACGCACCCACACAGACACAGAGGGAAGGGGUUGGGAUUGGGACAGGGUGCACAGCAGGGCGGGGUAGGACCCCAGCCCCU,0.546
UAACUUUAGAGGAGGAUCUGAUGGAUAUGGCAGUGGACGUGGAUUUGGGGAUGGCUAUAAUAGGUAUGGAGGAGGACCUGGAGGUGGCAA,0.04
GCAGGAAGUAAAAACAAAUGGAAAUGCUUCGGAUAGUGGCAGGGGUGGAGGUUGCUAAGGAAAGGGUGGGAUGGGAGUGGGUAAAGAGUU,1.34

# Sample 6
# Target: Protein max, full length (MAX, Homo sapiens, UniProt P61244-2, residues 1-151)
# Technique: protein-binding microarray
# Molecule type: double-stranded DNA, one strand shown
# Sample: in vitro
# Concentration: not given
# Setting: k-mer, scored over probes, only values ≥0.25
# Reading: higher = stronger binding
Strand,E-score
GGTCACGA,0.295
ACACGCAT,0.389
CCATGCCG,0.404
ACACCTGA,0.266
CGTGGTTC,0.359
CATGGGCG,0.328
TCACATGA,0.423
GCTAACAC,0.266
GCCATGCC,0.385
AGCACGAG,0.425
ACCCCGTG,0.421
GAGCATGA,0.342
TGCCCACA,0.274
CACTCCCC,0.277
CACGCTAA,0.333
ACCCACGC,0.409
GCACCTGA,0.269
CCGCATGC,0.438
ACATGCGA,0.394
CCATGTGA,0.481
ACATGGAG,0.308
ATCGCATG,0.402
CACGCGAC,0.444
ACCCCACG,0.281
CACGTGAA,0.485

# Some of these lines once more (sample 4):
Strand,fitted relative affinity [z-score]
TGAGGTATCGGTCTCGGTTAGTGCTAG,6.89
TTGCTGAAATAATACTGTTAGTGCTAG,0.0786
GACGGTTGCGGACTGGGGACGTGCTAG,0.0289
CGTTTTTCATTTTTTTTTTCGTGCTAG,2.14
TTCGCTTTCTTTAACTCATTGTGCTAG,1.91
TCAGCTGTGGGTTTGAGACTGTGCTAG,-0.77
TTATGTCTCCTTCTCCTTTAGTGCTAG,1.06
TTAGGACTGGACACTGGATTAGTGCTA,-0.469
TTAGATATCAGTCACGATTAGTGCTAG,0.0897
